Values quoted from earlier work that unrelated publications cite.
Protocols differ between the studies behind these lines. Several values in a cell are separate wells, animals, samples, runs or records. ± gives the spread as reported. ≈ marks a conversion by molar mass, not a printed value.

Structure (SMILES) | tested on | assay | test system | setting | scale | quantity | result
CN1CCOCC1CC(O)Cn1c2ccc(Cl)cc2c2cc(Cl)ccc21 (centres unmarked) | Plasmodium | parasite growth |  |  |  | IC50 | 1230 nM
O=C1C=C(Br)/C(=C/Br)O1 | Pseudomonas aeruginosa | pyoverdine production | PAO1 | 10 µM |  | inhibition | > 90%
O=S(=O)(c1ccc(-c2ccc3ncnc(Nc4ccc(OCc5cccc(F)c5)c(Cl)c4)c3c2)cc1)N1CCCC1 | Trypanosoma brucei | parasite growth |  |  |  | EC50 | 350 nM
CN1CCOCC1CC(O)Cn1c2ccc(Br)cc2c2cc(Br)ccc21 (centres unmarked) | Plasmodium | parasite growth |  |  |  | IC50 | 2080 nM
CCN(CC)CC#CCNc1ccnc2cc(Cl)ccc12 | Plasmodium falciparum | parasite growth, SYBR Green I | 3D7 |  |  | IC50 | 48.8 nM and 43.2 nM
CCCCCCCCCC(=O)NC1CCCC1 | Pseudomonas aeruginosa |  | PAO1 | 50 µM |  | pyocyanin inhibition | 50%
CCOC(=O)[C@H]1c2c(ccc3ccccc23)O[C@@H]2c3ccccc3CCN21 | Staphylococcus aureus | efflux pump inhibition | ATCC 25923 | 50 µM | baseline: untreated cells | relative fluorescence index | 0.15
Cc1cccc(-c2nc(C3CCN(C(=O)C4CC(=O)N(c5ccc(C)c(C)c5)C4)CC3)no2)c1 (centres unmarked) | Plasmodium | parasite growth |  |  |  | IC50 | 12100 nM
COc1ccc(Nc2nc(Nc3ccc(OCC[18F])cc3)ncc2Br)cc1 |  |  | S180 tumour-bearing mice, blood | intravenous, 30 min |  | tissue uptake | 2.19 ± 0.01 %ID/g
NS(=O)(=O)c1nnc(NC(=O)c2ccccc2)s1 | Enterococcus faecium |  | HM-965 |  |  | MIC | 5.2 µM (≈ 1.48 µg/mL)
CC(C)C[C@@H](NC(=O)[C@H](C)NC(=O)CNC(=O)[C@@H](NC=O)C(C)C)C(=O)N[C@@H](C)C(=O)N[C@@H](C(=O)N[C@H](C(=O)N[C@@H](C(=O)N[C@@H](Cc1c[nH]c2ccccc12)C(=O)N[C@H](CC(C)C)C(=O)N[C@@H](Cc1c[nH]c2ccccc12)C(=O)N[C@H](CC(C)C)C(=O)N[C@@H](Cc1c[nH]c2ccccc12)C(=O)N[C@@H](C(=O)N[C@@H](Cc1c[nH]c2ccccc12)C(=O)NCCO)C(C)C)[C@H](C)O)C(C)C)C(C)C | Streptococcus pyogenes |  | SSI-9 |  |  | MIC | 0.067 µM (≈ 0.125 µg/mL)
O=C(c1cccc(-c2ccc3ncnc(Nc4ccc(OCc5cccc(F)c5)c(Cl)c4)c3c2)c1)N1CCCC1 | Trypanosoma brucei | parasite growth |  |  |  | EC50 | 520 nM
CCCCCCCCCC(=O)CC(=O)Nc1cccc(OC)c1 | Pseudomonas aeruginosa | pyocyanin production | PAO1 | 200 µM |  | inhibition | 93%
c1ccc(COc2ccc(Nc3ncnc4ccc(-c5cccc(N6CCOCC6)c5)cc34)cc2)cc1 | Trypanosoma brucei | parasite growth |  |  |  | EC50 | 180 nM
O=C(CCCCCCCCCN=C=S)CC(=O)N[C@H]1CCOC1=O | Pseudomonas aeruginosa | biofilm formation | PAO1 | 50 µM |  | inhibition | 45%
NS(=O)(=O)c1nnc(NC(=O)CCc2ccccc2)s1 | Enterococcus faecium |  | HM-965 |  |  | MIC | 0.192 µM (≈ 0.06 µg/mL)
CC(C)C[C@@H](NC(=O)[C@H](C)NC(=O)CNC(=O)[C@@H](NC=O)C(C)C)C(=O)N[C@@H](C)C(=O)N[C@@H](C(=O)N[C@H](C(=O)N[C@@H](C(=O)N[C@@H](Cc1c[nH]c2ccccc12)C(=O)N[C@H](CC(C)C)C(=O)N[C@@H](Cc1c[nH]c2ccccc12)C(=O)N[C@H](CC(C)C)C(=O)N[C@@H](Cc1c[nH]c2ccccc12)C(=O)N[C@H](CC(C)C)C(=O)N[C@@H](Cc1c[nH]c2ccccc12)C(=O)NCCO)C(C)C)C(C)C)C(C)C | Listeria monocytogenes |  | 10403S |  |  | MIC | 4.3 µM (≈ 8.09 µg/mL)
CNC1CCC(CC(O)Cn2c3ccccc3c3ccccc32)CC1 (centres unmarked) | Plasmodium | parasite growth |  |  |  | IC50 | 162 nM
NS(=O)(=O)c1nnc(NC(=O)CN2CCOCC2)s1 | Enterococcus faecalis |  | NR-31971 |  |  | MIC | 6.51 µM (≈ 2 µg/mL)
c1cnc2[nH]cc(C3NCCc4sccc43)c2c1 (centres unmarked) | Escherichia coli | efflux pump inhibition | AG100A AcrAB-TolC deleted | 50 µM | baseline: untreated cells | relative fluorescence index | 0.29
CN(c1ccc(NC(=O)c2cccc(C(=N)N)c2)cc1OCc1ccc(C(=N)N)cc1)S(=O)(=O)Cc1ccccc1 | Trypanosoma brucei | cell growth | Lister 427 |  |  | IC50 | 1 ± 0.4 nM

Structure (SMILES) | tested on | assay | test system | setting | scale | quantity | result
Clc1cc(Nc2ncnc3ccc(-c4cccc(N5CCOCC5)c4)cc23)ccc1OCc1ccccc1 | Trypanosoma brucei | parasite growth |  |  |  | EC50 | 230 nM
c1ccc2c3c([nH]c2c1)C(c1c[nH]c2ncccc12)NCC3 (centres unmarked) | Escherichia coli | efflux pump inhibition | AG100A AcrAB-TolC deleted | 50 µM | baseline: untreated cells | relative fluorescence index | 0.3
CNC(C)(C)C(O)CC(O)Cn1c2ccccc2c2ccccc21 (centres unmarked) | Plasmodium | parasite growth |  |  |  | IC50 | 10100 nM
CCCCCCCCCCCCn1nnc(CC(=O)O)n1 | Pseudomonas aeruginosa | pyocyanin production | PAO1 | 10 µM, 36 |  | inhibition | 40%
CN[C@H](CC(C)C)C(=O)N[C@H]1C(=O)N[C@@H](CC(N)=O)C(=O)N[C@H]2C(=O)N[C@H]3C(=O)N[C@H](C(=O)N[C@H](C(=O)O)c4cc(O)cc(O)c4-c4cc3ccc4O)[C@H](O)c3ccc(c(Cl)c3)Oc3cc2cc(c3O[C@@H]2O[C@H](CO)[C@@H](O)[C@H](O)[C@H]2O[C@H]2C[C@](C)(N)[C@H](O)[C@H](C)O2)Oc2ccc(cc2Cl)[C@H]1O | Listeria monocytogenes |  | 10403S |  |  | MIC | 0.34 µM (≈ 0.493 µg/mL)
c1ccc(-c2nnn3c2nc(N2CCN(Cc4ccc5c(c4)OCO5)CC2)c2ccccc23)cc1 | Plasmodium | parasite growth |  |  |  | IC50 | 17000 nM
[2H]C([2H])([2H])C1(C([2H])([2H])[2H])NC(=O)N(c2ccc(F)c(C(C)(F)F)c2)C1=O | Schistosoma mansoni |  | juvenile, infected mice | single dose |  | ED50 | 18 mg/kg
CCCCCCCCCC(=O)CC(=O)Nc1ccccc1 | Pseudomonas aeruginosa |  | PAO1 | 50 µM |  | pyocyanin inhibition | 70%
c1ccc2c(c1)CCNC2c1c[nH]c2cnccc12 (centres unmarked) | Staphylococcus aureus | efflux pump inhibition | ATCC 25923 | 50 µM | baseline: untreated cells | relative fluorescence index | -0.09
CN(C)c1cccc(-c2ccc3ncnc(Nc4ccc(OCc5cccc(F)c5)c(Cl)c4)c3c2)c1 | Trypanosoma brucei | parasite growth |  |  |  | EC50 | 2200 nM
CNC1CCCC(CC(O)Cn2c3ccc(Cl)cc3c3cc(Cl)ccc32)C1 (centres unmarked) | Plasmodium | parasite growth |  |  |  | IC50 | 86 nM
O=C(CCCOc1cccc(Br)c1)N[C@H]1CCSC1=O | Pseudomonas aeruginosa | Caenorhabditis elegans fast killing | PA14 | 50 µM |  | reduction | 50%
O=C(CCCCCONC(=O)c1ccc2cc[nH]c2c1)NO | Plasmodium falciparum | parasite growth | 3D7 |  |  | IC50 | 90 nM and < 100 nM
CN1CCN(c2cccc(-c3ccc4ncnc(Nc5ccc(OCc6cccc(F)c6)c(Cl)c5)c4c3)c2)CC1 | Trypanosoma brucei | parasite growth |  |  |  | EC50 | 550 nM
c1ccc2c(c1)CCNC2c1c[nH]c2ccncc12 (centres unmarked) | Staphylococcus aureus | efflux pump inhibition | ATCC 25923 | 50 µM | baseline: untreated cells | relative fluorescence index | -0.17
NS(=O)(=O)c1nnc(NC(=O)C2CCCCC2)s1 | Enterococcus |  | vancomycin-resistant, three strains | range across strains |  | MIC | 0.861 to 1.72 µM (≈ 0.25 to 0.499 µg/mL)
O=S(=O)(c1ccc(-c2ccc3ncnc(Nc4ccc(OCc5cccc(Br)c5)c(Cl)c4)c3c2)cc1)N1CCOCC1 | Trypanosoma brucei | parasite growth |  |  |  | EC50 | 680 nM
O=C(Nc1ccc2ccc(=O)oc2c1)c1cn(-c2ccc3noc(-c4ccccc4)c3c2)nn1 | Plasmodium | parasite growth |  |  |  | IC50 | 15700 nM
c1ccc2c(c1)CCNC2c1c[nH]c2ncccc12 (centres unmarked) | Escherichia coli | efflux pump inhibition | AG100 AcrAB-TolC expressing | 50 µM | baseline: untreated cells | relative fluorescence index | 0.33
O=S(=O)(c1ccc(-c2ccc3ncnc(Nc4ccc(OCc5cccc(F)c5)c(Cl)c4)c3c2)cc1)N1CCOCC1 | Trypanosoma brucei | parasite growth |  |  |  | EC50 | 1300 nM
